Values quoted from earlier work as cited in several papers.
Numbered parts are unrelated; values within a part may stem from several laboratories.

Set 1
Organism: Toxoplasma gondii
Concentration: concentration not given
Under activity, `Clc1ccc2nsnc2c1NC1=NCCN1` is recorded as “inactive”.
Under activity, `Cc1cccc(C)c1OCC(C)N` (centres unmarked) is recorded as “inactive”.
`CC(C)NCC(O)COc1ccc(CCOCC2CC2)cc1` (centres unmarked) — result for activity: “inactive”.
Under activity, `CN/C(=N/CCSCc1nc[nH]c1C)NC#N` is recorded as “inactive”.

Single results of other studies
With `Cc1cc2c(-c3ccco3)cnc(N[C@@H]3CCN(C)C[C@H]3C(=O)NC3CCCCC3)c2[nH]c1=O` the IC50 was 125 nM (BET BD1 domain (human); cell-based).
For `CN(C)CC/C=C1/c2ccccc2Sc2ccc(Cl)cc21`, “mRNA fold change” read 2.34 (MCF7; microarray, measured: BTG1; concentration not given; reference: DMSO).
With `CN(C)[C@@H]1CCN(c2cc(-c3ccccc3)nc3ccnn23)C1` the EC50 was 740 nM (MRGPRX2; cellular activity).
With `C=CC(=O)N1CCN(c2ncnc3c(F)c(-c4c(O)cccc4F)c(Cl)cc23)CC1` the IC50 was 310 nM (NCI-H358; measured: phospho-ERK; 2 h).
`c1ccc(N2CCN(Cc3nc4ccccc4[nH]3)CC2)nc1` gave a Ki of 46.8 nM (DRD4.7; biochemical).
For `CCCCCCCCNC(C)C(O)c1ccc(SC(C)C)cc1` (centres unmarked), the fold change was 2 (MCF7; microarray, Connectivity Map, measured: INSIG1 mRNA; concentration not given, 6 h; reference: DMSO).
With `c1ccc(C2CCN(c3cnc4c(N5CCOCC5)nccn34)CC2)cc1` the IC50 was greater than 10000 nM (PDE10A (human); enzyme activity).
